Measurements from different studies.
Numbered parts are unrelated; each lists some results of a single study. Several values in a cell are separate wells, animals, samples, runs or records.
Sequence of UniProt P14416 (whole entry, looked up): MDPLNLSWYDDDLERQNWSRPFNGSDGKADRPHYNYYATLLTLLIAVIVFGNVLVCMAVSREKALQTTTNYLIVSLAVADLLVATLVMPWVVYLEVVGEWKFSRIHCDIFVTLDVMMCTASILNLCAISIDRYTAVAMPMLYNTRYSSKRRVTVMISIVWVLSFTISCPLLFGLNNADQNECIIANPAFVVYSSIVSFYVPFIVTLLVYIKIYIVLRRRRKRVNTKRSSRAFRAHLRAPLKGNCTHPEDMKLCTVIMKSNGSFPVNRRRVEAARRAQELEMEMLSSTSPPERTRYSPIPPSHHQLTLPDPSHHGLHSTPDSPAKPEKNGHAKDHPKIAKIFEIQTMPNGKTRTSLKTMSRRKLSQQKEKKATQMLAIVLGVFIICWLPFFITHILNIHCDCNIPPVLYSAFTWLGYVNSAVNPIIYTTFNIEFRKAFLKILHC
Sequence of UniProt P41595 (whole entry, looked up): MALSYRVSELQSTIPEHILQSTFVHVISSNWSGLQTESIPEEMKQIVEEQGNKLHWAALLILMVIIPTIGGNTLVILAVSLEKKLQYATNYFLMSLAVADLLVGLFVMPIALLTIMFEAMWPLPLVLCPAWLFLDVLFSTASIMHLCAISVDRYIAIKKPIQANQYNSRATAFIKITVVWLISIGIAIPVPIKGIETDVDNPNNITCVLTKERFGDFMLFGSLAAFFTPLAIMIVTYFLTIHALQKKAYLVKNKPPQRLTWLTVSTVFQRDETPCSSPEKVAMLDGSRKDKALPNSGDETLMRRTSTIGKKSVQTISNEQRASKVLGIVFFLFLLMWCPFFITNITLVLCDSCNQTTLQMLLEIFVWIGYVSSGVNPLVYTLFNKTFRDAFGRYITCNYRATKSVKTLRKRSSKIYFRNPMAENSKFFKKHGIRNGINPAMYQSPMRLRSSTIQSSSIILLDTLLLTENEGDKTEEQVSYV
Sequence of UniProt P46098 (whole entry, looked up): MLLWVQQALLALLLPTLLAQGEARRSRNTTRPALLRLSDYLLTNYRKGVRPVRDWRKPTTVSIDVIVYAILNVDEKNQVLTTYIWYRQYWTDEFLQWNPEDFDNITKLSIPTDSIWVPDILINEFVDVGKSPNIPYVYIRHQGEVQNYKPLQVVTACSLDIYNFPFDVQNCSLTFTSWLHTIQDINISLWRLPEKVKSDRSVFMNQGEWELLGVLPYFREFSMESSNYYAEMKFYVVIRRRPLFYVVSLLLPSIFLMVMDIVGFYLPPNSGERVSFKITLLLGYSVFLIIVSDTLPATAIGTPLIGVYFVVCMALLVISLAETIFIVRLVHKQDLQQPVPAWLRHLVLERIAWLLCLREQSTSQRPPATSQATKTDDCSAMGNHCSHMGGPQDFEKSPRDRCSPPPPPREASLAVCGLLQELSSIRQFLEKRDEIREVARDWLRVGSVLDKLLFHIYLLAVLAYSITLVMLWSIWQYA

Block 1
Target: Calcium/calmodulin-dependent protein kinase type II subunit alpha (CAMK2A, Homo sapiens, UniProt Q9UQM7)
Sequence of UniProt Q9UQM7 (whole entry, looked up): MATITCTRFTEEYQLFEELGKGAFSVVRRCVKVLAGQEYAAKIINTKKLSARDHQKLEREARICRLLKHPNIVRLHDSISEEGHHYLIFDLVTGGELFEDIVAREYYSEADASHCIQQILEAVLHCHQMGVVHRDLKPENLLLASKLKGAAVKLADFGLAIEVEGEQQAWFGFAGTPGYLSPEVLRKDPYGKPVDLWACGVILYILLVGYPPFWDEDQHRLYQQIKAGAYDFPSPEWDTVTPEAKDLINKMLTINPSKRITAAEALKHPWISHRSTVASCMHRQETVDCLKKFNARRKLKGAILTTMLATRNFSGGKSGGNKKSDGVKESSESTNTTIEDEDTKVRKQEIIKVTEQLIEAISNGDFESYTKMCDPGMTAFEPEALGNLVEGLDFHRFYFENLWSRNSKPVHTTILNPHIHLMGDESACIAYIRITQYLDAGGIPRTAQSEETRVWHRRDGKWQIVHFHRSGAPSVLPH
Read-out: enzyme activity
Action: inhibitor
Concentration: 10 µM
Structure (SMILES) | inhibition
Cc1ncc([N+](=O)[O-])n1CC(O)CCl (centres unmarked) | 10%
Cn1c(=O)c2[nH]cnc2n(C)c1=O | -2%
NC(=O)NS(=O)(=O)c1ccc(N)cc1 | -1%
C1COC(NC(C2CC2)C2CC2)=N1 | -3%

Block 2
Cell line: mouse MPNST tumor cells
Method: high-content nuclear imaging
Refers to: cell number
Concentration: 10 µM
Time: 12 h
Notes: mean of 2 replicates
Relative to: plate mean
Direction: higher = more cells
SMILES | nuclei count
O=C(O)c1ccccc1Nc1cccc(C(F)(F)F)c1 | -0.352 z-score
C=CCc1ccccc1OCC(O)CNC(C)C (centres unmarked) | 2.67 z-score
Nc1nc2ccc(OC(F)(F)F)cc2s1 | -0.0245 z-score and -2.55 z-score
CCCNC(=O)NS(=O)(=O)c1ccc(Cl)cc1 | 1.34 z-score
O=C1CCC(N2C(=O)c3ccccc3C2=O)C(=O)N1 (centres unmarked) | 1.47 z-score and -0.71 z-score
NCCNCCNCCNCCN | 0.04 z-score
CN1C(=O)c2sccc2N(C)c2nc(Nc3ccc(S(N)(=O)=O)cc3)ncc21 | -2.01 z-score
Cc1cc(C(C)(C)CC(C)(C)C)ccc1OCCOCC[N+](C)(C)Cc1ccccc1 | -4.26 z-score

Block 3
Structure (SMILES): Cc1nc(C2CCN(C(=O)c3ccc(OC(F)(F)F)cc3N)CC2)c2ncc(N3CCN(C)CC3)cc2n1
Read-out: binding
Method: radioligand binding
Concentration: 10 µM
target | inhibition [%]
D(2) dopamine receptor (DRD2, Homo sapiens, UniProt P14416) | 2.97
5-hydroxytryptamine receptor 2B (HTR2B, Homo sapiens, UniProt P41595) | -1.28
5-hydroxytryptamine receptor 3A (HTR3A, Homo sapiens, UniProt P46098) | 6.25

Block 4
Target: Beta-1 adrenergic receptor (ADRB1, Homo sapiens, UniProt P08588)
Sequence of UniProt P08588 (whole entry, looked up): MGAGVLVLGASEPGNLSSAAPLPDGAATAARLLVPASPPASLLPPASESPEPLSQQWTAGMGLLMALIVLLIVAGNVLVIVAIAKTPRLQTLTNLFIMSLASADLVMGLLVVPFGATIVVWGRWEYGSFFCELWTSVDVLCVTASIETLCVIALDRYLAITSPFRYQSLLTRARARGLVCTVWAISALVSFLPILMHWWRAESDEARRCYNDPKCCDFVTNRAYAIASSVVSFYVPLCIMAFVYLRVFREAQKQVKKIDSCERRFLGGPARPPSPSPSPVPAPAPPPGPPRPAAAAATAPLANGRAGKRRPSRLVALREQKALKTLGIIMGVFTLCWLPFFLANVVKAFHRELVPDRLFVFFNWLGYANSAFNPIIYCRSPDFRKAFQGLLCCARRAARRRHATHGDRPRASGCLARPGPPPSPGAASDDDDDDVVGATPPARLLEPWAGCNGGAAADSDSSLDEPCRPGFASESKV
Action: agonist
Structure (SMILES) | EC50
OC(c1ccccc1)c1nc(Nc2ccc(N3CCOCC3)cc2)n[nH]1 (centres unmarked) | ≥ 100 µM
Cn1c(COc2cccc(C(F)(F)F)c2Cl)nnc1[C@H]1C[C@H](N)C1 | ≥ 100 µM
CN1Cc2ccc(N3CCOCC3)nc2C(C)(C(=O)NCCCn2ccnc2)C1 (centres unmarked) | ≥ 100 µM
CC(C)c1ccc(NC(=O)c2cc3c(nc2O)CC(C)(C)CC3=O)cc1 | ≥ 100 µM
COc1ccc(OCC(O)CN2CCC(O)CC2)c(CNCC2(O)CCCCC2)c1 (centres unmarked) | ≥ 100 µM
CC(=O)Oc1ccc2c(c1)Oc1cc(OC(C)=O)ccc1C21OC(=O)c2ccccc21 | ≥ 100 µM
CN(C)c1cccc(-c2nccc3c(=O)cc(-c4cn[nH]c4)oc23)c1 | ≥ 100 µM
COc1ccccc1N1CCN(CC(=O)Nc2cc(C)ccc2C)CC1 | ≥ 100 µM
